Experimental data of several laboratories.
Each numbered part is a random draw from the data of one study; scales do not carry over between parts.

Study 1 — target: Sox, HMG box (Pigoraptor chileana); technique: Spec-seq; form: double-stranded DNA, one strand shown; sample: in vitro; concentration: not given; setting: whole probe, mean of replicates; baseline: not given; direction: lower = stronger binding
Residues (chain): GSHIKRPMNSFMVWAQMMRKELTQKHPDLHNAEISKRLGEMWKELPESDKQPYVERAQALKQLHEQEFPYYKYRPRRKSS
Sequence	relative binding energy [ln ratio]
GAGTCGTCTCGTCAGCACTCAAGTTCCGTAGAGCACTCAGGTC	0.448
GAGTCGTCTCGTCAGCACCATAAATCCGTAGAGCACTCAGGTC	-0.21
GAGTCGTCTCGTCAGCACAGAAGTTCCGTAGAGCACTCAGGTC	0.0953
GAGTCGTCTCGTCAGCACCATGCAGCCGTAGAGCACTCAGGTC	0.534

Study 2 — technique: protein binding microarray; form: double-stranded DNA, one strand shown; sample: in vitro; concentration: not given; baseline: not given; direction: higher = stronger binding
Target: Histone acetyltransferase KAT6A, winged helix 1, GST fusion (KAT6A, Homo sapiens, UniProt Q92794, residues 1-85)
Setting: 8-mer, flanks averaged, mean of 2 arrays, mostly near background
Residues (chain): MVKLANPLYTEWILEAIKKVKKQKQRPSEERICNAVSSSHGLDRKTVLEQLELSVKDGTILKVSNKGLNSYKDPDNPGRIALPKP
Sequence	E-score
ATGTGGAC	-0.0787
ACGATGTA	-0.0712
GCACAAAC	-0.185
GGCTGTAA	-0.0917
CAATGCGC	0.381

Study 3 — technique: protein-binding microarray; form: double-stranded DNA, one strand shown; sample: in vitro; concentration: not given; direction: higher = stronger binding
Target: Max-binding protein MNT, bHLH-zipper, MAX partner unstated (MNT, Homo sapiens, UniProt Q99583, residues 220-300)
Setting: k-mer, scored over probes, only values ≥0.25
Construct (chain): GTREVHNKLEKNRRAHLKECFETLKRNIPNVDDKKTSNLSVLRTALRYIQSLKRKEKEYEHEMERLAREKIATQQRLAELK
Sequence	E-score
CACCCCAC	0.355
CACGAGCA	0.296
ATCTCGTG	0.377
ACACCACG	0.316

Single results of other studies
Molecule	target	assay	test system	conditions	how to read	measurement	value
PhoQ, residues 284 288 289 292 302 303 TLMATV	PhoP, residues 12 14 15 18 19 LHTVL (Escherichia coli, UniProt P23836)	Sort-seq, refers to: YFP reporter	E. coli	PhoQ-PhoP variant library, added: 10 µM Mg2+	baseline: high Mg2+ state, higher = stronger signaling	fold induction	1.28
